Measured values from different studies.
Every numbered part comes from another study and shows a few of its results, in no order.
Chain of UniProt O75116 (whole entry, looked up): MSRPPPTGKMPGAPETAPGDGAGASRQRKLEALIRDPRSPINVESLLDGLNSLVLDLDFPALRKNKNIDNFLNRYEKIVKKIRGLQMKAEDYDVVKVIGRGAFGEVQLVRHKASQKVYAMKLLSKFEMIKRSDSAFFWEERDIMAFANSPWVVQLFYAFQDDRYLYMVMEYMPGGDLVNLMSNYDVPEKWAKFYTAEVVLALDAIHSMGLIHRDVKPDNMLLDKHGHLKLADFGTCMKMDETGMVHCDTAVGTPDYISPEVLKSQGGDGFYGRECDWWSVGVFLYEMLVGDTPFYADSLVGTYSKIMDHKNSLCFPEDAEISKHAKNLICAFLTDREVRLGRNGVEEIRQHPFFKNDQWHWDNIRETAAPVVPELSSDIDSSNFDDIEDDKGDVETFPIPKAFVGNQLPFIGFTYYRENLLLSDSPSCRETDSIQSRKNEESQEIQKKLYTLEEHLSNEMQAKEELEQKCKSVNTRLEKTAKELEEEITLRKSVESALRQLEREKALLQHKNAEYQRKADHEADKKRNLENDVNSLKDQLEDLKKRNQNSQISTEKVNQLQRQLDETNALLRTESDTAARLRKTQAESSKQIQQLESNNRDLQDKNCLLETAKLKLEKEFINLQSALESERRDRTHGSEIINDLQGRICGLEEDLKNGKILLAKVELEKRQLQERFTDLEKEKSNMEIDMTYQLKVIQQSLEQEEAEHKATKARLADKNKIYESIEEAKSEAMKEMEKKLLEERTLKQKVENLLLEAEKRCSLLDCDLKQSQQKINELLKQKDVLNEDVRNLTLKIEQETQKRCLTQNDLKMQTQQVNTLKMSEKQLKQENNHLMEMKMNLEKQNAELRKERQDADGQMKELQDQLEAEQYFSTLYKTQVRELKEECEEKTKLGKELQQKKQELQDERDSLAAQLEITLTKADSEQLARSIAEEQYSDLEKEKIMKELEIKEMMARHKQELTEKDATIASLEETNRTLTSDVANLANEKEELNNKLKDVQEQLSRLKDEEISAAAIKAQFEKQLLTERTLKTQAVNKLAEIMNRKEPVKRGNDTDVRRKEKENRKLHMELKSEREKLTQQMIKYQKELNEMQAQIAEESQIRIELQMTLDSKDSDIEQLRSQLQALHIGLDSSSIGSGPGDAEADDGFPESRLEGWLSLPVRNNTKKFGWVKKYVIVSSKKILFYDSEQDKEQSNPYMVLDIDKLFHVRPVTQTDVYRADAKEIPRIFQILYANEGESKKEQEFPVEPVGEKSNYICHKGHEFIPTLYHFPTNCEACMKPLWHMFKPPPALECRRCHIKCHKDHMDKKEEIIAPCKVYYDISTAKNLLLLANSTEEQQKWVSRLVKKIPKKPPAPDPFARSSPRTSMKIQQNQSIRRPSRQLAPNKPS
Chain of UniProt Q13554 (whole entry, looked up): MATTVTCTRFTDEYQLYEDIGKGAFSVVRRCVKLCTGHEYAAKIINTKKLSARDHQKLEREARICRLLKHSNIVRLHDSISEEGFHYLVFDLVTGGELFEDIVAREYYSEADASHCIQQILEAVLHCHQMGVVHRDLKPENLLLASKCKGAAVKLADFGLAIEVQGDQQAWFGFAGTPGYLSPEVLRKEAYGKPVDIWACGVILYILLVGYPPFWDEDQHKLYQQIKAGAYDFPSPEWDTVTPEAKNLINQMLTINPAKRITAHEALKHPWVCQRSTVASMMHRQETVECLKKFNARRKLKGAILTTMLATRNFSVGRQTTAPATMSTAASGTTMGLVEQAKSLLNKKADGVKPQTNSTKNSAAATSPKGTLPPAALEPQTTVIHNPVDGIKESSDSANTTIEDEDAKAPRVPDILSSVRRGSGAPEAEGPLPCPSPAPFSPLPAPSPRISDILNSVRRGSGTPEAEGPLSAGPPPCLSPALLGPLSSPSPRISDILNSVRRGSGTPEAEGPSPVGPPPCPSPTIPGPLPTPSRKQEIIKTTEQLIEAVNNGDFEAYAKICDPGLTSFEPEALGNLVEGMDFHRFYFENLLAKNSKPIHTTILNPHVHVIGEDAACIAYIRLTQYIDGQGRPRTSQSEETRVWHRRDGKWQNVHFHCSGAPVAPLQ
Chain of UniProt Q96GD4 (whole entry, looked up): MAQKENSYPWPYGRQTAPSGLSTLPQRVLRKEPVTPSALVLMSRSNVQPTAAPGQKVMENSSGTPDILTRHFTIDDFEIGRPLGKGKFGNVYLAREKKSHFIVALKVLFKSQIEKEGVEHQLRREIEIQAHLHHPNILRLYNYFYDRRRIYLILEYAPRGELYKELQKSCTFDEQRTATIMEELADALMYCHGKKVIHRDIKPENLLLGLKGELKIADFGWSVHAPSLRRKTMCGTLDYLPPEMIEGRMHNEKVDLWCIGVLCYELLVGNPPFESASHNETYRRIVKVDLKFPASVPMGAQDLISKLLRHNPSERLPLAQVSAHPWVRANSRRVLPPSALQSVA
Chain of UniProt P19525 (whole entry, looked up): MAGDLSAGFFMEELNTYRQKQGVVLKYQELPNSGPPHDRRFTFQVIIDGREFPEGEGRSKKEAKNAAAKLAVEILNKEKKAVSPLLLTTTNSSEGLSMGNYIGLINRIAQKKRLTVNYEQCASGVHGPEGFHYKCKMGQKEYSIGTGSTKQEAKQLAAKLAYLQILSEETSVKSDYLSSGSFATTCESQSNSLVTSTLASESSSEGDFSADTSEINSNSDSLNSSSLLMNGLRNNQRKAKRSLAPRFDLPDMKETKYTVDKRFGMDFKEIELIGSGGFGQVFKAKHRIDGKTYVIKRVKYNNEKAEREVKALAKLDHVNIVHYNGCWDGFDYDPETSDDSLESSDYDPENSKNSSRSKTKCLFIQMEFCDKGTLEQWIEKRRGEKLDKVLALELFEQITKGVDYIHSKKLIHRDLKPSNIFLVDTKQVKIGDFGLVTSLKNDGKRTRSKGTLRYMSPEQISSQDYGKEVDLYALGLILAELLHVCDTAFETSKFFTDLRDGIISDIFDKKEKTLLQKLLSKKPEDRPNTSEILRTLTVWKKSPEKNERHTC
Chain of UniProt P57078 (whole entry, looked up): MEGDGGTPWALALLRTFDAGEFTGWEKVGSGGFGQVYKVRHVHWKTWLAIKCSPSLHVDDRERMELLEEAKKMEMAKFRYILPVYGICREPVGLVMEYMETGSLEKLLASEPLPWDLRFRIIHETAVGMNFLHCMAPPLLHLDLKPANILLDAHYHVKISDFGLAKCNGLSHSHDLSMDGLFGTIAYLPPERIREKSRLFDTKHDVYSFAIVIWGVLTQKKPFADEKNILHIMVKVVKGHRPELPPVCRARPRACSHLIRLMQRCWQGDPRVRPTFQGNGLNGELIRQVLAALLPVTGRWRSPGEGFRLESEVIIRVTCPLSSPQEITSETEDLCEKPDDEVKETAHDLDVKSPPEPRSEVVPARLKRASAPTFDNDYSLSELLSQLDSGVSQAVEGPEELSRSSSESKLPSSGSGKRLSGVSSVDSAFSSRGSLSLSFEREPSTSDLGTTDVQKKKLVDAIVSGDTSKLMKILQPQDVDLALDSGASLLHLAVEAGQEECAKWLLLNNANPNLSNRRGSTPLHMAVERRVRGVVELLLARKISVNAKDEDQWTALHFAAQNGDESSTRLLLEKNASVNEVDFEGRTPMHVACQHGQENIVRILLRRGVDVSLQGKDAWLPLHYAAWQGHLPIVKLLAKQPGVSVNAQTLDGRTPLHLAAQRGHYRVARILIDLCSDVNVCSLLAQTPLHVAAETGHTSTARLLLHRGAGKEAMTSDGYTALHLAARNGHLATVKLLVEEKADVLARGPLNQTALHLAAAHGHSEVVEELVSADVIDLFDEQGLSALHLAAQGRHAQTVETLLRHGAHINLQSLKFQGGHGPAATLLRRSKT
Chain of UniProt P52564 (whole entry, looked up): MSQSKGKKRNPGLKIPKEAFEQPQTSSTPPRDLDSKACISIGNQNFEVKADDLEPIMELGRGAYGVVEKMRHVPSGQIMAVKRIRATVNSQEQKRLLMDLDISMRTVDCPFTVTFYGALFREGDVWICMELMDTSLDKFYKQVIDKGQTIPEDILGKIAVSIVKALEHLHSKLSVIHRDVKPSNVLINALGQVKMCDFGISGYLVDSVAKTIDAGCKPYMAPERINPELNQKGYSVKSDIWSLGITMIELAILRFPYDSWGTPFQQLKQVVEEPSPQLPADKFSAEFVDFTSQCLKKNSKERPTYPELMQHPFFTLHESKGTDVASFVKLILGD

Block 1 — medium: hydrocarbon/water
| Compound | logD |
| --- | --- |
| CCC[C@H]1C(=O)N[C@@H](CC2CCCCC2)C(=O)N(C)[C@@H](C)C(=O)N[C@@H](CC(C)C)C(=O)N(C)Cc2cn(nn2)CC(=O)N[C@@H](CC(C)C)C(=O)N(C)[C@@H](C)C(=O)N[C@@H](CC(C)C)C(=O)N2CCC[C@@H]2C(=O)N1C | 1.6 |
| CC(C)C[C@@H]1NC(=O)CN(CCCOC(C)C)C(=O)[C@H](C)NC(=O)[C@H](CC(C)C)N(C)C(=O)[C@H]2CCCN2C(=O)[C@H](C)NC(=O)CN(CC2CCCCC2)C(=O)[C@H](C)NC(=O)[C@H](CC(C)C)N(C)C(=O)[C@H]2CCCN2C1=O | 2.34 |
| CCC[C@H]1NC(=O)CSC[C@@H](C(=O)OCC)N(C)C(=O)[C@H](CC(C)C)NC(=O)[C@H](C)N(C)C(=O)[C@@H](CC(C)C)NC(=O)[C@H](C)N(C)C(=O)[C@@H]2CCCN2C(=O)[C@@H](CC(C)C)NC(=O)CN(C)C1=O | 0.37 |

Block 2 — host: human; medium: microsomes or S9; tested at: 2 µM; time: 0.5 h
| Compound | remaining compound [%] |
| --- | --- |
| COc1cc(OC)cc(N(Cc2c(F)cccc2Cl)C(=O)Cc2ccncc2)c1 | 7.32 |
| CC(C)COc1cc(=O)n2c(c1C(=O)NCC1CCCCC1)CCCCC2 | 0.442 |
| Cc1cc(Cl)cc(C(=O)c2c(C(C)C)c(=O)[nH]c(=O)n2Cc2cc(N)nc(Cl)c2)c1 | 23.9 |
| CCOC(=O)C(CC)c1cc(C#N)c(C#N)cc1O (centres unmarked) | 53 |
| COc1cc(OC)c2c(c1)C(=O)NN1C(=O)OC(C)(C)C21C (centres unmarked) | 46.3 |
| CCN1CCN(CCNC(=O)c2ccc3c(c2)N(Cc2cccc(C)c2)C(=O)c2ccccc2S3(=O)=O)CC1 | 11.5 |
| c1ccc(/C(Cc2ccn[nH]2)=N\N=C(/Cc2ccn[nH]2)c2ccccc2)cc1 | 52.7 |
| CCc1cc(N2CC[C@H](F)C2)n2nc(C)c(C)c2n1 | 12.3 |
| Cc1nc2sc(C(=O)N(C)c3ccccc3)c(N)c2c(C)c1C | 1.45 |
| O=C(O)c1csc(CNC(=O)c2cc(N3CCNC3=O)ccc2Cl)n1 | > 100 |
| COc1ccc(Cl)cc1NC(=O)c1[nH]c(C)c(C(C)=O)c1C | 71.7 |

Block 3 — effect on: enzyme activity; action: inhibitor; tested at: 0.5 µM; reference: control
Target: Serine/threonine-protein kinase SIK2 (SIK2, Homo sapiens, UniProt Q9H0K1)
Chain of UniProt Q9H0K1 (whole entry, looked up): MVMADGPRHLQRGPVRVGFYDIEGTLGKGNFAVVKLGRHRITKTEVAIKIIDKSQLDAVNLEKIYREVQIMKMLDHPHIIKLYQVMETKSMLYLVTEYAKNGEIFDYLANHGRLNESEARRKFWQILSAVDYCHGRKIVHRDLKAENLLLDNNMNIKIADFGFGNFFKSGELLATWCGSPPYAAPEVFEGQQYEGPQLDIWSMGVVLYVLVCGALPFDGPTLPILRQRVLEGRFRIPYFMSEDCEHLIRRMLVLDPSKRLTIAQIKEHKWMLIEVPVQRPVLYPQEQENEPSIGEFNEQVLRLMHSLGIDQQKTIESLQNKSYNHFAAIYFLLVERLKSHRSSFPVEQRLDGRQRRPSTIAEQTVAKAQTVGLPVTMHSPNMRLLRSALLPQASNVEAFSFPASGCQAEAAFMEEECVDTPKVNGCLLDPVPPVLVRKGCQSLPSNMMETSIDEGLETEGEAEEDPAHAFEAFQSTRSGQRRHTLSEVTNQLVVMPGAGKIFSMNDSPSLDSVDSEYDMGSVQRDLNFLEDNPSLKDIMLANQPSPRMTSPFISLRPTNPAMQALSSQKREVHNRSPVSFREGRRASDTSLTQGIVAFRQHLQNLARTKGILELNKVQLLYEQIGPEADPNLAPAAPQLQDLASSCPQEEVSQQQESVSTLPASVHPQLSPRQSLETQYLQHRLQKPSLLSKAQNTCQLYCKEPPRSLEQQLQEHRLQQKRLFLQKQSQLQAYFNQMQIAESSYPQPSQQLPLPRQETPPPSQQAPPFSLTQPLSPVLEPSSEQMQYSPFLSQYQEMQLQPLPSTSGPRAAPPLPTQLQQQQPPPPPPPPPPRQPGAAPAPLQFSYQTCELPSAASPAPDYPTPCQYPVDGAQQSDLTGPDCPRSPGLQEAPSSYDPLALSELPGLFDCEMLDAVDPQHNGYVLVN
| Structure (SMILES) | remaining activity |
| --- | --- |
| COc1cc2ncnc(Nc3ccc(O)c(Br)c3)c2cc1OC | 92.2% |
| O=C1C(Cl)=C(N2C(=O)CCC2=O)C(=O)c2ccccc21 | 92.8% |
| O=C(NC(NC(=S)Nc1ccc(F)c([N+](=O)[O-])c1)C(Cl)(Cl)Cl)C(c1ccccc1)c1ccccc1 (centres unmarked) | 112% |
| Cc1cc2ncc(-c3ccccc3)nc2cc1C | 87.4% |
| O=c1cc(-c2cccc3c2Sc2ccccc2S3)oc(N2CCOCC2)c1 | 113% |
| O=C(Nc1cccc(Nc2nccc(Nc3cccc(C(F)(F)F)c3)n2)c1)C1CC1 | 103% |
| Cc1nc2cc3nc(-c4cccs4)cnc3cc2n1C | 112% |
| CCN(CC)CCNC(=O)c1c(C)[nH]c(/C=C2\C(=O)Nc3ccc(Cl)cc32)c1C | 42.7% |
| COc1cc2ncnc(Nc3cccc(Cl)c3)c2cc1OC | 98.7% |
| Nc1cccc(-c2cc3c(Oc4cccc(O)c4)ncnc3[nH]2)c1 | 69.4% |
| Cn1nc2c3c(cccc31)C(=O)c1ccccc1-2 | 100% |
| CCOc1nc(NC(=O)Cc2cc(OC)ccc2OC)cc(N)c1C#N | 97.9% |
| COc1cc2c(cc1OC)-c1[nH]nc(Nc3cccc(F)c3)c1C2 | 38.6% |
| CCN(CC)C(=O)c1ccc(Nc2nc(OCC3CCCCC3)c3[nH]cnc3n2)cc1 | 75.3% |
| C[C@@H]1CCN(C(=O)CC#N)C[C@@H]1N(C)c1ncnc2[nH]ccc12 | 89.2% |
| Cc1cn(-c2cc(NC(=O)c3ccc(C)c(Nc4nccc(-c5cccnc5)n4)c3)cc(C(F)(F)F)c2)cn1 | 103% |
| O=C1c2ccccc2-c2n[nH]c3cccc1c23 | 83.1% |
| c1ccc(-c2cnc(Nc3ccc(OCCN4CCCC4)cc3)s2)cc1 | 45.6% |
| CN([C@@H](Cc1ccc(OS(=O)(=O)c2cccc3cnccc23)cc1)C(=O)N1CCN(c2ccccc2)CC1)S(=O)(=O)c1cccc2cnccc12 | 108% |
| N#C/C(=C\c1ccc(O)c(O)c1)C(=O)NCc1ccccc1 | 99.7% |
| Ic1cccc(CSc2nnc(-c3ccncc3)o2)c1 | 100% |
| c1ccc(-c2[nH]ncc2-c2ccnc3ccccc23)nc1 | 94.8% |
| N#Cc1c(NC(=O)c2cccc3ccccc23)sc2c1CCCC2 | 101% |

Block 4 — technique: competition with immobilised ligand; tested at: 1 µM
Compound: COc1ccc2cc(OCC3(C(=O)O)CN(C(=O)c4ccc(F)cc4)C3)ccc2c1
| target | test | remaining binding |
| --- | --- | --- |
| Dual specificity mitogen-activated protein kinase kinase 6 (MAP2K6, Homo sapiens, UniProt P52564) | cell-free assay | 100% |
| STE20/SPS1-related proline-alanine-rich protein kinase (STK39, Homo sapiens, UniProt Q9UEW8) | cell-free assay | 55% |
| Receptor-type tyrosine-protein kinase FLT3 (FLT3, Homo sapiens, UniProt P36888, D835Y) | cell-free assay | 100% |
| Tyrosine-protein kinase ABL1, phosphorylated (ABL1, Homo sapiens, UniProt P00519) | cell-free assay | 100% |
| Receptor-interacting serine/threonine-protein kinase 4 (RIPK4, Homo sapiens, UniProt P57078) | cell-free assay | 66% |
| Epidermal growth factor receptor (EGFR, Homo sapiens, UniProt P00533, L858R/T790M) | cell-free assay | 100% |
| Receptor-type tyrosine-protein kinase FLT3 (FLT3, Homo sapiens, UniProt P36888, ITD) | cell-free assay | 100% |
| Ephrin type-B receptor 2 (EPHB2, Homo sapiens, UniProt P29323) | cell-free assay | 100% |
| Tyrosine-protein kinase ABL2 (ABL2, Homo sapiens, UniProt P42684) | cell-free assay | 100% |
| Aurora kinase B (AURKB, Homo sapiens, UniProt Q96GD4) | cell-free assay | 100% |
| Serine/threonine-protein kinase Nek4 (NEK4, Homo sapiens, UniProt P51957) | cell-free assay | 94% |
| Myosin-IIIb (MYO3B, Homo sapiens, UniProt Q8WXR4) | binding | 71% |
| Serine/threonine-protein kinase WNK4 (WNK4, Homo sapiens, UniProt Q96J92) | cell-free assay | 79% |
| Calcium/calmodulin-dependent protein kinase type II subunit beta (CAMK2B, Homo sapiens, UniProt Q13554) | cell-free assay | 100% |
| Interferon-induced, double-stranded RNA-activated protein kinase (EIF2AK2, Homo sapiens, UniProt P19525) | cell-free assay | 100% |
| Serine/threonine-protein kinase Nek6 (NEK6, Homo sapiens, UniProt Q9HC98) | cell-free assay | 100% |
| MAP kinase-activated protein kinase 2 (MAPKAPK2, Homo sapiens, UniProt P49137) | cell-free assay | 100% |
| Receptor-type tyrosine-protein kinase FLT3 (FLT3, Homo sapiens, UniProt P36888, K663Q) | cell-free assay | 100% |
| Rho-associated protein kinase 2 (ROCK2, Homo sapiens, UniProt O75116) | cell-free assay | 100% |
| cAMP-dependent protein kinase catalytic subunit PRKX (PRKX, Homo sapiens, UniProt P51817) | cell-free assay | 90% |
| Proto-oncogene tyrosine-protein kinase receptor Ret (RET, Homo sapiens, UniProt P07949, M918T) | cell-free assay | 75% |
| Epidermal growth factor receptor (EGFR, Homo sapiens, UniProt P00533, A750P/del747-749) | cell-free assay | 100% |
| Vascular endothelial growth factor receptor 1 (FLT1, Homo sapiens, UniProt P17948) | cell-free assay | 100% |
| Cyclin-dependent kinase 11A (CDK11A, Homo sapiens, UniProt Q9UQ88) | binding | 100% |
| Myosin-IIIa (MYO3A, Homo sapiens, UniProt Q8NEV4) | binding | 100% |

Repeated from above (block 4):
| target | test | remaining binding |
| --- | --- | --- |
| Vascular endothelial growth factor receptor 1 (FLT1, Homo sapiens, UniProt P17948) | cell-free assay | 100% |
| Ephrin type-B receptor 2 (EPHB2, Homo sapiens, UniProt P29323) | cell-free assay | 100% |
| Receptor-type tyrosine-protein kinase FLT3 (FLT3, Homo sapiens, UniProt P36888, D835Y) | cell-free assay | 100% |
| Tyrosine-protein kinase ABL1, phosphorylated (ABL1, Homo sapiens, UniProt P00519) | cell-free assay | 100% |
| Receptor-type tyrosine-protein kinase FLT3 (FLT3, Homo sapiens, UniProt P36888, ITD) | cell-free assay | 100% |
